Published values collected from several papers.
Protocols differ between the studies behind these lines. Numbers after ± are the reported error.

The Tmax of `CN[C@H](CC(C)C)C(=O)N[C@H]1C(=O)N[C@@H](CC(N)=O)C(=O)N[C@H]2C(=N)N[C@H]3C(=O)N[C@H](C(=O)N[C@H](C(=O)NCCCNC(=N)N)c4cc(O)cc(O)c4-c4cc3ccc4O)[C@H](O)c3ccc(c(Cl)c3)Oc3cc2cc(c3O[C@@H]2O[C@H](CO)[C@@H](O)[C@H](O)[C@H]2O[C@H]2C[C@](C)(NCc3ccc(-c4ccc(Cl)cc4)cc3)[C@H](O)[C@H](C)O2)Oc2ccc(cc2Cl)[C@H]1O` is reported as 30 min (mouse; intravenous, 25 mg/kg).
The Tmax of `CC(C)C[C@@H]1NC(=O)[C@@H](Cc2c[nH]c3ccccc23)NC(=O)[C@H](CCCNC(=N)N)NC(=O)[C@@H](CCC(=O)O)NC(=O)[C@H](CCC(N)=O)NC(=O)[C@@H](CCC(=O)O)NC(=O)[C@H](CCCNC(=N)N)NC(=O)[C@@H](Cc2c[nH]c3ccccc23)NC1=O` is reported as 30 min (C57BL/6 mouse, plasma; subcutaneous, 7.5 mg/kg, acetate buffer pH 4 vehicle).
With `CC[C@H](C)[C@H](NC(=O)[C@H](Cc1ccccc1)NC(=O)[C@H](CCC(=O)O)NC(=O)[C@H](CCCCN)NC(=O)[C@H](C)NC(=O)[C@H](C)NC(=O)[C@H](CCC(N)=O)NC(=O)CNC(=O)[C@H](CCC(=O)O)NC(=O)[C@H](CC(C)C)NC(=O)[C@H](Cc1ccc(O)cc1)NC(=O)[C@H](CO)NC(=O)[C@H](CO)NC(=O)[C@@H](NC(=O)[C@H](CC(=O)O)NC(=O)[C@H](CO)NC(=O)[C@@H](NC(=O)[C@H](Cc1ccccc1)NC(=O)[C@@H](NC(=O)CNC(=O)[C@H](CCC(=O)O)NC(=O)CNC(=O)[C@@H](N)Cc1c[nH]cn1)[C@@H](C)O)[C@@H](C)O)C(C)C)C(=O)N[C@@H](C)C(=O)N[C@@H](Cc1c[nH]c2ccccc12)C(=O)N[C@@H](CC(C)C)C(=O)N[C@H](C(=O)N[C@@H](CCCCN)C(=O)NCC(=O)N[C@@H](CCCNC(=N)N)C(=O)N[C@@H](CSC1CC(=O)N(CCC(=O)NCCCCC(NC(=O)CCN2C(=O)CC(SC[C@H](NC(=O)[C@H](CCCNC(=N)N)NC(=O)CNC(=O)[C@H](CCCCN)NC(=O)[C@@H](NC(=O)[C@H](CC(C)C)NC(=O)[C@H](Cc3c[nH]c4ccccc34)NC(=O)[C@H](C)NC(=O)[C@@H](NC(=O)[C@H](Cc3ccccc3)NC(=O)[C@H](CCC(=O)O)NC(=O)[C@H](CCCCN)NC(=O)[C@H](C)NC(=O)[C@H](C)NC(=O)[C@H](CCC(N)=O)NC(=O)CNC(=O)[C@H](CCC(=O)O)NC(=O)[C@H](CC(C)C)NC(=O)[C@H](Cc3ccc(O)cc3)NC(=O)[C@H](CO)NC(=O)[C@H](CO)NC(=O)[C@@H](NC(=O)[C@H](CC(=O)O)NC(=O)[C@H](CO)NC(=O)[C@@H](NC(=O)[C@H](Cc3ccccc3)NC(=O)[C@@H](NC(=O)CNC(=O)[C@H](CCC(=O)O)NC(=O)CNC(=O)[C@@H](N)Cc3c[nH]cn3)[C@@H](C)O)[C@@H](C)O)C(C)C)[C@@H](C)CC)C(C)C)C(N)=O)C2=O)C(=O)NCCCCCCN)C1=O)C(N)=O)C(C)C` (some centres unmarked) the Tmax was 60 min (Kunming mouse, plasma; subcutaneous, 50 nmol/kg).
With `O=C(c1cc(Cc2n[nH]c(=O)c3ccccc23)ccc1F)N1CC(CNC2CC2)C1` the Tmax was ≤ 15 min (ICR mouse, female, plasma; oral, 60 mg/kg).
For `Cc1sc2c(c1C)C(c1ccc(Cl)cc1)=N[C@@H](CC(=O)OC(C)(C)C)c1nnc(C)n1-2`, the Tmax was 15 min (CD1 mouse, male, plasma; oral, 10 mg/kg).
The Tmax of `CC[C@H](C)[C@H](NC(=O)[C@H](CCCN)NC(=O)[C@H](CCCNC(=N)N)NC(=O)[C@@H]1CCCN1C(=O)[C@@H]1CCCN1C(=O)[C@H](CCCNC(=N)N)NC(=O)[C@@H]1CCCN1C(=O)[C@H](CCCNC(=N)N)NC(=O)[C@@H]1CCCN1C(=O)[C@H](CC(C)C)NC(=O)[C@H](Cc1ccc(O)cc1)NC(=O)[C@@H]1CCCN1C(=O)[C@@H]1CCCN1C(=O)[C@H](CCCCN)NC(=O)[C@H](CC(=O)O)NC(=O)[C@@H](N)C(C)C)C(=O)N[C@@H](Cc1ccc(O)cc1)C(=O)N[C@@H](CC(N)=O)C(=O)N[C@@H](CCCN)C(N)=O` is reported as 15 min (competitive ELISA; mouse CD-1, female, plasma; subcutaneous, 4.34 µmol/kg).
With `CCCCCCCCCCCCCCCC(=O)NCCCCCCNC(=O)C(CCCCNC(=O)CCN1C(=O)CC(SC[C@H](NC(=O)[C@H](CCCNC(=N)N)NC(=O)CNC(=O)[C@H](CCCCN)NC(=O)[C@@H](NC(=O)[C@H](CC(C)C)NC(=O)[C@H](Cc2c[nH]c3ccccc23)NC(=O)[C@H](C)NC(=O)[C@@H](NC(=O)[C@H](Cc2ccccc2)NC(=O)[C@H](CCC(=O)O)NC(=O)[C@H](CCCCN)NC(=O)[C@H](C)NC(=O)[C@H](C)NC(=O)[C@H](CCC(N)=O)NC(=O)CNC(=O)[C@H](CCC(=O)O)NC(=O)[C@H](CC(C)C)NC(=O)[C@H](Cc2ccc(O)cc2)NC(=O)[C@H](CO)NC(=O)[C@H](CO)NC(=O)[C@@H](NC(=O)[C@H](CC(=O)O)NC(=O)[C@H](CO)NC(=O)[C@@H](NC(=O)[C@H](Cc2ccccc2)NC(=O)[C@@H](NC(=O)CNC(=O)[C@H](CCC(=O)O)NC(=O)CNC(=O)[C@@H](N)Cc2c[nH]cn2)[C@@H](C)O)[C@@H](C)O)C(C)C)[C@@H](C)CC)C(C)C)C(N)=O)C1=O)NC(=O)CCN1C(=O)CC(SC[C@H](NC(=O)[C@H](CCCNC(=N)N)NC(=O)CNC(=O)[C@H](CCCCN)NC(=O)[C@@H](NC(=O)[C@H](CC(C)C)NC(=O)[C@H](Cc2c[nH]c3ccccc23)NC(=O)[C@H](C)NC(=O)[C@@H](NC(=O)[C@H](Cc2ccccc2)NC(=O)[C@H](CCC(=O)O)NC(=O)[C@H](CCCCN)NC(=O)[C@H](C)NC(=O)[C@H](C)NC(=O)[C@H](CCC(N)=O)NC(=O)CNC(=O)[C@H](CCC(=O)O)NC(=O)[C@H](CC(C)C)NC(=O)[C@H](Cc2ccc(O)cc2)NC(=O)[C@H](CO)NC(=O)[C@H](CO)NC(=O)[C@@H](NC(=O)[C@H](CC(=O)O)NC(=O)[C@H](CO)NC(=O)[C@@H](NC(=O)[C@H](Cc2ccccc2)NC(=O)[C@@H](NC(=O)CNC(=O)[C@H](CCC(=O)O)NC(=O)CNC(=O)[C@@H](N)Cc2c[nH]cn2)[C@@H](C)O)[C@@H](C)O)C(C)C)[C@@H](C)CC)C(C)C)C(N)=O)C1=O` (some centres unmarked) the Tmax was 198 ± 30 min (Kunming mouse, plasma; subcutaneous, 50 nmol/kg).
With `CCOc1ccccc1-n1c(CN2CCNCC2)nc2ccccc2c1=O` the Tmax was 15 min (C57BL/6 mouse, male, plasma; intraperitoneal, 3 mg/kg).

For quick reference, copied from above:
For `Cc1sc2c(c1C)C(c1ccc(Cl)cc1)=N[C@@H](CC(=O)OC(C)(C)C)c1nnc(C)n1-2`, the Tmax was 15 min (CD1 mouse, male, plasma; oral, 10 mg/kg).
